Measurements gathered from unrelated publications.
Protocols differ between the studies behind these lines. Numbers after ± are the reported error.
PRKG1: cGMP-dependent protein kinase 1 (PRKG1, Homo sapiens, UniProt Q13976)

Sequences of proteins named here, by UniProt entry; tags and fusion partners are left off. Residues count along the entry.
UniProt Q13976, whole entry: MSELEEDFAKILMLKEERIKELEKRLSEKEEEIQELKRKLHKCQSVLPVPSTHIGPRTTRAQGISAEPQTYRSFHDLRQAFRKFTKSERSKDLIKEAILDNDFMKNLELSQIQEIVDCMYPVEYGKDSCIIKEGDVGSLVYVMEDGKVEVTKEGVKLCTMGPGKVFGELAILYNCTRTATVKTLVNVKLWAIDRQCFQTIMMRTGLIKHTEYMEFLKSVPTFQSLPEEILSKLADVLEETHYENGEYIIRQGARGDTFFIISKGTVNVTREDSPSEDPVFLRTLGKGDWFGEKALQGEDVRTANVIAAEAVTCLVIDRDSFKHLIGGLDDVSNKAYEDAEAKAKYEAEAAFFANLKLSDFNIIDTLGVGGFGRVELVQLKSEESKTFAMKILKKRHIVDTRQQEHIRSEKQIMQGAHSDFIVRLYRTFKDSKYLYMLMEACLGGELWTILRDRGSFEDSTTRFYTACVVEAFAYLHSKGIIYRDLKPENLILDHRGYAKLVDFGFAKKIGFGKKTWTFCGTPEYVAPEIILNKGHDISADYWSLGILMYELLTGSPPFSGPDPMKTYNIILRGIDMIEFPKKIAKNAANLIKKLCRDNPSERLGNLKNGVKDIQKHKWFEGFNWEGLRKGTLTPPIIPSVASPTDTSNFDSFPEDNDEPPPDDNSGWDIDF
UniProt P26045, 646-901 limits assumed: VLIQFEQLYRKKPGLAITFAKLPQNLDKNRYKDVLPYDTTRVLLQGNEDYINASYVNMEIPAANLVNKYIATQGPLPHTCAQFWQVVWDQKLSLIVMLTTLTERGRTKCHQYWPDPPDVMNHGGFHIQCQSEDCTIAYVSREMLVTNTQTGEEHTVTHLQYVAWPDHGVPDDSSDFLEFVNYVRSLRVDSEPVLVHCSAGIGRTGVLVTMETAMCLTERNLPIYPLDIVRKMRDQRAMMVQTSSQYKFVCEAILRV
UniProt Q14790, 214-479 D374A/D384A/C409S/C433S limits assumed: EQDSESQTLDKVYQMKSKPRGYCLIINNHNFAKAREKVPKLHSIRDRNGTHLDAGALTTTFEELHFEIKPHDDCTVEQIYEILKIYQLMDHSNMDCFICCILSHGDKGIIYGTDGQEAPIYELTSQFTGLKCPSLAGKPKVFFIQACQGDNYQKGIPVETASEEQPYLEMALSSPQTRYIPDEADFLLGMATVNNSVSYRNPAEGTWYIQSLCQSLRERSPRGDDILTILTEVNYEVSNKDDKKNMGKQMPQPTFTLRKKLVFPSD

The IC50 of CC[C@H](C)[C@H](NC(=O)[C@H](C)NC(=O)[C@H](CCC(=O)O)NC(=O)[C@H](CCC(=O)O)NC(=O)[C@H](CC(C)C)NC(=O)[C@H](CCCCN)NC(=O)[C@H](CCCCN)NC(=O)[C@H](CCSC)NC(=O)[C@H](CCC(=O)O)NC(=O)[C@H](Cc1ccc(O)cc1)NC(=O)[C@H](CCC(=O)O)NC(=O)[C@H](CC(C)C)NC(=O)[C@H](CC(=O)O)NC(=O)[C@H](CC(C)C)NC(=O)[C@H](Cc1ccccc1)NC(=O)[C@@H](NC(=O)[C@@H](NC(=O)[C@H](CC(N)=O)NC(=O)[C@@H](NC(=O)[C@H](CCC(N)=O)NC(=O)[C@H](CC(=O)O)NC(=O)[C@H](CC(C)C)NC(=O)[C@@H](N)CO)[C@@H](C)CC)C(C)C)[C@@H](C)O)C(=O)N[C@@H](CCCCN)C(=O)N[C@@H](CCCCN)C(=O)N[C@@H](CC(C)C)C(=O)N[C@@H](CCC(=O)O)C(=O)N[C@@H](CCC(=O)O)C(=O)N[C@H](C(=O)N[C@@H](Cc1ccc(O)cc1)C(=O)N[C@H](C(=O)N[C@@H](CC(=O)O)C(=O)N[C@@H](CC(C)C)C(=O)N[C@@H](CCCCN)C(=O)N[C@@H](CCC(=O)O)C(=O)N[C@@H](CC(C)C)C(=O)O)[C@@H](C)CC)[C@@H](C)O is reported as 0.335 µM (SARS-CoV-2 EG.5.1 pseudovirus; pseudovirus infection, inhibitor, luciferase; Caco-2; 24 h).
With CC(=O)N[C@@H](Cc1c[nH]cn1)C(=O)N[C@@H](CC(=O)O)C(=O)NCC(=O)N[C@@H](CC(C)C)C(=O)N[C@@H](Cc1cc(=O)oc2cc(OP(=O)(O)O)ccc12)C(=O)N[C@@H](CCC(N)=O)C(=O)NCC(=O)N[C@@H](CC(C)C)C(=O)N[C@@H](CO)C(=O)N[C@H](C(=O)N[C@@H](C)C(=O)N[C@H](C(=O)N[C@@H](CCCCN)C(=O)N[C@@H](CC(=O)O)C(=O)N[C@H](C(=O)N[C@@H](Cc1ccc(O)cc1)C(=O)N[C@@H](CC(=O)O)C(=O)N[C@@H](C)C(=O)N[C@@H](CC(C)C)C(=O)N[C@@H](Cc1c[nH]cn1)C(N)=O)[C@@H](C)O)[C@@H](C)O)[C@@H](C)O the Km was 13.7 µM (PTPN3 (Homo sapiens, UniProt P26045); peptide hydrolysis, substrate; pH 6.0, 37 °C, TCR zeta-chain ITAM peptide).
CN(C)S(=O)(=O)c1ccc(NCCN2CCC(Nc3nc4ccccc4n3Cc3ccc(F)cc3)CC2)c2nonc12 gave an emission wavelength of 581 nm.
The inhibition of CCCN(C)Cc1onc(-c2cccc(Cl)c2)c1-c1ccnc(N[C@@H]2CCN(C(=O)c3ccn(C)n3)C2)n1 is reported as 12.2 ± 0.8% (PRKG1; kinase activity, inhibitor, IMAP; 10 µM, added: FAM-IP3R peptide).
The probe labelling of O=C(c1ccc(N2CCOCC2)cc1)N1CCC[C@@H](N(C(=O)CCl)c2ccccc2)C1 is reported as > 90% (Caspase-8 (CASP8, Homo sapiens, UniProt Q14790, C409S/C433S/D374A/D384A); competitive gel-based ABPP; HEK293T cell lysate; 10 µM, 1 h).
O=C(c1ccc(Cl)c([N+](=O)[O-])c1)N1CCN(c2ccccc2)CC1 gave an IC50 of 24.1 ± 5.3 µM (Saccharomyces cerevisiae; cell growth, doubling time; SEC14 -136 allele; Sec14 reduced ~7-fold).
For CN(C)S(=O)(=O)c1ccc(NCCCCN2CCC(Nc3nc4ccccc4n3Cc3ccc(F)cc3)CC2)c2nonc12, the fluorescence increase was ~6 fold (hERG HEK293 membranes; 1 µM, 20 min; reference: blank).
O=C(c1ccc(Cl)c([N+](=O)[O-])c1)N1CCN(c2cccc(C(F)(F)F)c2)CC1 gave an IC50 of 104 ± 33.1 µM (Saccharomyces cerevisiae; cell growth, doubling time; wild type).
CCN(CC)Cc1onc(-c2cccc(Cl)c2)c1-c1ccnc(N[C@@H]2CCN(C(=O)c3ccn(C)n3)C2)n1 has an inhibition of 19 ± 9% (PRKG1; kinase activity, inhibitor, IMAP; 10 µM, added: FAM-IP3R peptide).

A few entries again:
O=C(c1ccc(Cl)c([N+](=O)[O-])c1)N1CCN(c2cccc(C(F)(F)F)c2)CC1 gave an IC50 of 104 ± 33.1 µM (Saccharomyces cerevisiae; cell growth, doubling time; wild type).
